Measured values pooled from the literature.
Numbered parts are unrelated; each lists some results of a single study. Changes are numbered by the printed parent chain.

Series 1
Target: ABI1, truncated, D143A, DHFR fusion (Arabidopsis thaliana)
Technique: DHFR PCA, deep sequencing
Sample: yeast
Setting: methotrexate growth selection, single substitutions
With: (+)-ABA 710 µM
Relative to: wild-type fitted maximum
Reading: higher = stronger binding
Endpoint: relative binding score
Parent: PYL1, truncated, DHFR fusion (Arabidopsis thaliana); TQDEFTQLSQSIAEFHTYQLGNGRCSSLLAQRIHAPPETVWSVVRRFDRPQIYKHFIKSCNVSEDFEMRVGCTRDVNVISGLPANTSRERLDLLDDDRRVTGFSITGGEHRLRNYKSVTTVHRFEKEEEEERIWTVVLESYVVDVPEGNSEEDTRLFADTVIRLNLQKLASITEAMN; partner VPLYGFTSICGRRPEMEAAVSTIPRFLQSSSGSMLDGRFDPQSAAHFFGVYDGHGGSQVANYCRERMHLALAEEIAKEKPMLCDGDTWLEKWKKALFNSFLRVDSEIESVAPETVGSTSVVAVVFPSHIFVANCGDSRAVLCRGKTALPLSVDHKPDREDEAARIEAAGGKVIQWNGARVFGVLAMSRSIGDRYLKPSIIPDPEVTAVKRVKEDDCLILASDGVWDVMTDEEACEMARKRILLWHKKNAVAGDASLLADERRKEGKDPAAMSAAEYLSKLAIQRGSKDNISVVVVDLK
L156M: 106%
M176R: 102%
D153I: 11.6%
A13L: 91.7%
E174F: 83.8%
K58A: 100%
G102I: 69.4%
P83T: 32.3%
L82I: 106%
S87R: 19.6%
L164H: 101%
D95P: -1.34%
Q31H: 94.9%
I52M: 95%
V137A: 71.6%
F157E: -8.58%
E125Y: 114%

Series 2
Target: Sal-like protein 4, full length isoform B (SALL4, Homo sapiens, UniProt Q9UJQ4-2, residues 1-616)
Technique: universal PBM
Form: double-stranded DNA, one strand shown
Sample: in vitro
Tested at: not given
Setting: 8-mer, flanks averaged, mean of replicates
Reading: higher = stronger binding
Endpoint: E-score
Residues (chain): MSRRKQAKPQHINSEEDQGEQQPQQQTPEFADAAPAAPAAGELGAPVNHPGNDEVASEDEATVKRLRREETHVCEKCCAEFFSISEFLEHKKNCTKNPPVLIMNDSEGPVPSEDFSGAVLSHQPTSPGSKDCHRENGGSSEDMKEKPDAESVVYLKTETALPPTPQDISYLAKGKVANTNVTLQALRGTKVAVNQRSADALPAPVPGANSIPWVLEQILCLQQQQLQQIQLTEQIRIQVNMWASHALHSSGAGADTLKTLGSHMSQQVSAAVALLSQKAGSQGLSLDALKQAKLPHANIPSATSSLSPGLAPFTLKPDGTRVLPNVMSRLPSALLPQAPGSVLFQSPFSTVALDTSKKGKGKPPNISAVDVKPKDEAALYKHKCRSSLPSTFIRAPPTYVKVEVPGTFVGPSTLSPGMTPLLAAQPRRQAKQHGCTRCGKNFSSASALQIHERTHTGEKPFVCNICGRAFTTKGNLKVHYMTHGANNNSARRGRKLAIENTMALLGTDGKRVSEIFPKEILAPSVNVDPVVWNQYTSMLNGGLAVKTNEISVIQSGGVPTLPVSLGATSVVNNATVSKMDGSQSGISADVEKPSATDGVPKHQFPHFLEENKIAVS
CCAGGACC: -0.23
CTCCGCGC: -0.288
GGCGAGCC: -0.327
CTATAGCA: 0.231
GCGGGGTA: -0.102
ATCCACCC: -0.0444
AAGCAGTG: -0.167
TACCATAA: 0.323
CTCCCTGA: -0.18
CCTGAAAC: 0.0151
CCCTTGGA: -0.0352
AGCTGTCA: 0.016
GCAACTCC: -0.183
AGATGTGA: 0.0708
GTGCTAAC: -0.0853
GCCTTCCC: -0.315
GCAACGCA: -0.232
AACAGCCA: 0.116
AAATCCGG: -0.202

Series 3
Target: TEF, bZIP domain (human)
Technique: DHFR protein complementation
Sample: yeast
Setting: single substitutions, most at no-binding floor
Relative to: wild-type JUN-FOS pair
Reading: higher = stronger binding
Endpoint: binding fitness
Parent: JUN, bZIP domain (human); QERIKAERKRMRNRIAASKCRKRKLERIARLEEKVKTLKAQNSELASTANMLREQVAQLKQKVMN; partner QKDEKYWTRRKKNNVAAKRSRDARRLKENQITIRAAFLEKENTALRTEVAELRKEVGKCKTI
E54R: -1.49 natural log
A40M: -1.49 natural log
V35H: -1.46 natural log
Q55T: -1.46 natural log
T48G: -1.49 natural log
I28E: -1.24 natural log
E32D: -1.54 natural log
A57H: -1.5 natural log
L52Y: -1.23 natural log
L31R: -1.46 natural log
Q41E: -1.37 natural log
T37R: -1.45 natural log

Series 4
Target: CCND1, cyclin fold, Cln2 fusion (human)
Technique: yeast growth competition, sequencing
Sample: yeast
Setting: weak parent motif
Relative to: not given
Reading: higher = stronger binding
Endpoint: normalised enrichment score
Parent: WEE1 docking peptide (human); CTLRQKLIFSPCS; partner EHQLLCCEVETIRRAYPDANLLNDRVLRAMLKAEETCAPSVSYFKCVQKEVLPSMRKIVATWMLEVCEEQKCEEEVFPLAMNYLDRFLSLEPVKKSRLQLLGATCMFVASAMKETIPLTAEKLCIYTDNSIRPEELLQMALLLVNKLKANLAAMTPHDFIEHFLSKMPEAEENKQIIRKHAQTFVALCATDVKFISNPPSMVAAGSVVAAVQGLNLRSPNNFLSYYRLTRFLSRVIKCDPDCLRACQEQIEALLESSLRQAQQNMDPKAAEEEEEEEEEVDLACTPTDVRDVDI
CTLAQKLIFSPCS [R4A]: 0.0938
CTLRQKLIFSPCA [S13A]: 0.0213
CTLRAKLIFSPCS [Q5A]: 0.383
CTLRQALIFSPCS [K6A]: 0.213
CTLRQKLIFAPCS [S10A]: 0.0816
CTLRQKLAFSPCS [I8A]: 0.384

Series 5
Target: RING finger protein unkempt homolog, zinc fingers 1-6, GST-SBP tag (UNK, Homo sapiens, UniProt Q9C0B0, residues 30-357)
UniProt Q9C0B0, sequence (30-357, looked up): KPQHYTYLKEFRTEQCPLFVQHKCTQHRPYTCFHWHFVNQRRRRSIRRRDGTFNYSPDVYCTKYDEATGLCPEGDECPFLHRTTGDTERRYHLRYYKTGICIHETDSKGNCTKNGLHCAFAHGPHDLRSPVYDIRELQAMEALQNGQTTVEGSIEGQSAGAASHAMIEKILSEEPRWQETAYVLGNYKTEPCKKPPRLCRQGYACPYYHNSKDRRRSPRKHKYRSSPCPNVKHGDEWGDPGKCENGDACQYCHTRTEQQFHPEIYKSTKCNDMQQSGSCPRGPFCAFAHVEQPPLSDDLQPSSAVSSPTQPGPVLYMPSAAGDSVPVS
Technique: RNA Bind-n-Seq
Form: RNA
Sample: in vitro
Tested at: not given
Setting: RNA with constant flanks, human and mouse sites, ends assumed
Relative to: input RNA pool
Reading: higher = stronger binding
Endpoint: bound/input enrichment
Shared flanks, not repeated: GGGAGUUCUACAGUCCGACGAUC … CAACAGAGGAUUGAGCAUCA
CCCAACAACACAGUAGUUGGGUCAUCAUAUGUACUUUUUGUCUUAUCAAUUUUCUUUACAAUAGUAGGACUUCUAUUUGCUGGCAAAGUUUGUUUACCAGGCUGAUGAAUGUCUAAAUUG: 0.141 ratio
AGAGAAGAGUUGGUUGAUCGUGUUUUUGAUGAAAGCCUCAACUUCCGAAAGAUUCCUCCAUUAGUUCAUUCCAAAACACCAGAAGGAAACAACGGUCGAUCUGGUGAUCCAAGACCUCAA: 0.213 ratio
AGUCUUAAAAGACCCUGGGAAGAUGAUCCUCCAAAUGUACAUAUUAUUGGAAAUCUGCCUUUUAGUGUUUCAACUCCACUGAUUAUCAAGUGGCUUGAAAAUAUUUCCUGUAGAGAUGGA: 1.25 ratio
AGGACUUCAUUCCUCCAUGUUUUCUUCCCUUAUCUUACUGUCAUUGUCCUUAAACCUUAUUUUAGAAAAUUGAUGAAGUAACAUGUUGCAUGUGGCUUACUCUGGCUAUAUCUAAGCCCG: 4.15 ratio
AUCUCUGCUAUGAACAAGGUUGCAGAAGUUUUACAAGUACCUCCAAUGAGAGUAUAUGAAGUAGCAACUUUUUAUACAAUGUAUAAUCGAAAGCCAGUUGGAAAGUAUCACAUUCAGGUC: 0.114 ratio
UCUAGAAGUCACAGUAUCUUCCUGAUAAAUAUUAAACAAGAGAAUGUAGAGACUGAAAAAAAACUCAGUGGGAAACUUUAUUUGGUUGAUUUGGCUGGGAGCGAAAAGGUCAGCAAAACU: 0.348 ratio
GCUCUGCCCAGUAUCCCUCACUUACCAAGAGGAGAAUGGAGGGAUAAUGGACUCACCCUAGCCUAGGGCUUCGACAUUGCAUGCUGGGAUCCAGCUCCUACCCUUCCUGCACUCCCUUCC: 0.215 ratio
GCCAUGGCUGACAAGGAAGCGGCCUUUGACGACGCAGUGGAAGAACGGGUGAUCAACGAGGAGUACAAAAUAUGGAAGAAGAACACCCCUUUUCUUUAUGAUUUGGUGAUGACCCAUGCC: 0.131 ratio
CCGACCACAGCCCCUCACAAGGAGAGGUACUUCGACCGAGUAGAUGAGAACAACCCAGAGUACUUGAGGGAGAGGAACAUGGCACCAGACCUUCGCCAGGACUUCAACAUGAUGGAGCAA: 0.199 ratio
UCCAGGUCUCUCCAAACUGACUAUAUAUUUAUUUGUUAUUUUAAAAAUACAACUAUAUUUUGGGUAGUUUUUUUUUUUUUUUUUUUGAUAAGUUGGUGUAAGGCUAUGUGACUUGAUCAA: 4.96 ratio
AUAUACAUGUUAUAGAACAUGUUCUCCACAUAAAAGCCAUAGGGACCCCCUUCUUUAAAAAAAAAAUCAUUUGAAAAGAAUAAGUUUGCCCAGUGUGGUGCAAGCCAGUAUCCCUAGCGC: 0.329 ratio

Series 6
Target: RNA binding protein fox-1 homolog 2, RRM domain, GST-SBP tag (RBFOX2, Homo sapiens, UniProt O43251-10, residues 100-194)
Technique: RNA Bind-n-Seq
Form: RNA
Sample: in vitro
Tested at: 365 nM
Setting: natural RNA segment, single round, ends assumed
Relative to: no-protein control
Reading: higher = stronger binding
Endpoint: RBNS enrichment (R)
Shared flanks, not repeated: GGGAGUUCUACAGUCCGACGAUC … UGGAAUUCUCGGGUGCCAA
Residues (chain): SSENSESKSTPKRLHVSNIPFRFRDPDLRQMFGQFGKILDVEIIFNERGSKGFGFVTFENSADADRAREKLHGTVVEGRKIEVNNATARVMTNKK
AGGACCUGGAGUCCUGGGGAGAGAAGGUGGGGAGGCUUGAGGCCUUUCUCUACUCCUCUCCCUCAGUCCUGAGACACUAAGAUCCCCUGGGCCAAGUCAGUUGGAGGCUG: 0.259
GCUGGGCAGAGCUGACUCCUGCCCCGCUGUCCCUGAUGGAACCUUCCUUCCAGAGCUGUGGAAGAGAUGUUUGUGACCCCUCCCUUGGACUCUUGGGGGCCAAUCCCACU: 0.307
CCUACCAGCUGCUGCUAGCCCUCUGUGGUUGUGCACCCCUCUUGCCCCCAUUCAGGGGCCGACUAACACCCUUUAUCCAAUGGUGCUAACCCCGGCUCUCCCUUUUCCAC: 0.325
AGAAGCCAGAGCCUUUGACAUGUGGGCUGGAGGUGAGUGGCCCACCACAGCAACCUACUGUAUAUUUUCUCCCUGAAAUCCUGCCCUCUGUCUUUGCACUUAGCUGUUCA: 0.688
CUAAAACCACGUGAAAUGUGAAUGAUUAUUGGCAAUAUUACCUUGACAGAAUCAUGGGACUUUGAGAAGAGGGAGGACAGAGGCCUCUGUCGCACUAACGCUCUCGUGGU: 0.453
CUUUUCUUUGGACAAUUCACUUUAGAGUCUUUAAACGGGUCUCUCGUGGGGAGGAUAGAUGUGCUCUGGAACUUUCUGAAGGACCAGCAGCUUCAGGGACUCUUAGUCUG: 0.315
CAGUCUCCUGUUCUCAGUCAGGCUUCGCUUGAGGUCAGUGCUAUAAAAAUUGAAAGCUUCCAGAGAGCUGCCCUGGUCUCCCUUCCUCUCCUGUAAGAGUAUUAAUGUUG: 0.561
AUCAAUUUUAAUGACGCUCCUGGUAUGGAACCUCAGAUAUACCCUAUUGGAGACAAUCCUUUGAUCAUAAAUUCUCCCCAACUAUAAAUCAUUUUAUGUCUUUAUCAUAG: 0.435
UAUGAAUGUGCAUUUCUUGACUUCACAGCAGCCACUUGACUAAUACCUUGUGUUCCGGGAAUAACAUGAUACUAUUCAGAGGAGCCAGAAGUAAAGUUUAUUUCAUGGAU: 1.16
GAGUUUAAAAUUAUAGUCUGUCUUUUAUCUUAACAGUUCUGAAUGCUGUCCUCAAAGUAUAUAAUGUUUCUCAUAUGUACCAAGACCAUUUUCACAAUAAACAGAUCUGU: 0.52
CACUUUAAAAGUGCCUACAGAGUUCUGUAAAUGAAAACACAGCUCUGCAUGAGUUCAAACCUGUCGUUCCUCCUUACAGUAGGAAUGGCACAUAUUGAGGCGAUCAUAAG: 0.688
ACAGACAAAAUGAAGACUAUCAUGUGCAAUCUUUUACAGUGGGGUUGAUGAUACAUUUGGAAGGAUUUGCUUGUUUAAUAUGUACAUUUUUUGUGUUAACAGCUUUUUGA: 1.1

A few entries again (series 1):
A13L: 91.7%
E174F: 83.8%
K58A: 100%
G102I: 69.4%
P83T: 32.3%
